# Measurements of several laboratories.
# Numbered parts are unrelated; each lists some results of a single study. Positions count from the first letter of the parent shown.

# Study 1 — target: CCND3, cyclin fold, Cln2 fusion (human); method: yeast growth competition, sequencing; matrix: yeast; notes: weak parent motif; baseline: not given; reading: higher = stronger binding
# Parent: PKN2 docking peptide (human); VSAVQKLDFSDTM; partner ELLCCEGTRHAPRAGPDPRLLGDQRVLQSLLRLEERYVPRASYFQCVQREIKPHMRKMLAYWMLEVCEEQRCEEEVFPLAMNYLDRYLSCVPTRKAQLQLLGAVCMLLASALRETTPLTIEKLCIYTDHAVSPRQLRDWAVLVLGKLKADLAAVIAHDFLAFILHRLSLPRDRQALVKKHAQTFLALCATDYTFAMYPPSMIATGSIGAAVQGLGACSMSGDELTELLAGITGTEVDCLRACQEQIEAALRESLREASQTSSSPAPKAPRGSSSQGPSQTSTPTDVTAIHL
Substitution,normalised enrichment score
L7T,0.0581
D11A,0.157
L7Y,0.129
V1S,0.166
V4P,0.0804
L7K,0.0649
M13Q,0.0572
M13A,0.0851
K6I,0.0748
A3I,0.0762
T12F,0.167

# Study 2 — method: RNA Bind-n-Seq; molecule type: RNA; matrix: in vitro; tested at: not given; baseline: input RNA pool; reading: higher = stronger binding
# Target: RING finger protein unkempt homolog, zinc fingers 1-6, GST-SBP tag (UNK, Homo sapiens, UniProt Q9C0B0, residues 30-357)
# Notes: RNA with constant flanks, human-mouse chimeric sites, ends assumed
# Target sequence (chain): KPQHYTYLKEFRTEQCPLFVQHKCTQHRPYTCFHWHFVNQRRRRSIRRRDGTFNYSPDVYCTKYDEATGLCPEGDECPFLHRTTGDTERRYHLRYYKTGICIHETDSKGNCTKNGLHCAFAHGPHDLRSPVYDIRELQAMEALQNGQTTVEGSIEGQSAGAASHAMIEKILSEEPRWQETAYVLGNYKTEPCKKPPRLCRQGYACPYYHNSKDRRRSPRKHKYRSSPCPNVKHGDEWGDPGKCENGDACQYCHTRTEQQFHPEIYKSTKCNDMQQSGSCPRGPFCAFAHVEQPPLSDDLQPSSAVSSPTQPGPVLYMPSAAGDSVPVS
Oligonucleotide,bound/input enrichment [ratio]
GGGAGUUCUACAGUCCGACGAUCGAUCAUGAACCACCAUCCAGAAAUGAAAUGAGAUUACCCAGACGAGCCAAAACAGCUGCGCUACAGAAAAGUAAACUUAACCUUGCAGAGUUCCUUAAUGAAGAUACAAGUUAAGAGAGCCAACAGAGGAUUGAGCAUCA,0.465
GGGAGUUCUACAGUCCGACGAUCCUGGCACUCUAUCAGAUAUAUUAAUUUUUUAAUGUAGAUGUAAUUUUAAAAAUGAAUGGCUACUUUACACGUUUAACUAGGCUCUUACUAUAUAUGUGUACAUAUGUAUAUGUAUUUAUACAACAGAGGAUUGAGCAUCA,3.17
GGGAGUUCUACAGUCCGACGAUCGUGCCCUUCUCGCUGCUGCGGAGCCCGAGCUGGGAACACCCCUUCCGCUGGUACCCUCCGCAUAGCCGCCUCUUCGAUCAAGCUUUCGGGGUGCCCCGGUUGCCCGAUGAGUGGUCGCAGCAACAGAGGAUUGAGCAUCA,0.0726
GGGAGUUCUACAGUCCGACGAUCUUAAUCCCCUUUACUGCUCCCCCACUUGUCAUGCUGAUGACAAAAACUUAUAUCCCCGUCCUAGCUUUCACUCAGAUGGCUUAUGGAGCCGGUUUCCUAGCUUUCUUGGGAGGGAUCAGACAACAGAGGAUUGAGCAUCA,0.264
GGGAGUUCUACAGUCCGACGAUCUCAGUCUUUUUGUACAGCUUUGUAAAUUCUUAACAUUAAUUUGUAAACAUGUUUAUUUUGUUUGGGUAAUUUGGUUCAUUAAGUACAUAGCUAAGGUAAUGAACAUCUUUUUCAGUAAUUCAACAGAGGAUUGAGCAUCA,0.347
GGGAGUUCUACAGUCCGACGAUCCACAGAGCAGCACCUACCCCCUCCUCCUUUCCACACCUGCAAACCCUUUUACUUGGGCUGAAUAUUUAGUGUAAUUACAUCUCAGCUUUGAGGGCUCCUGUGGCAAAAUACCCGGAUAAACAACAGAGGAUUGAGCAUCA,0.949
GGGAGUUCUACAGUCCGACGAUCGCAAAGGAUGAUGAGGCGGCAGCUGUUGCACUUUCCUCUCUCGUUCAUGCUUUGGAUGAGUUAAACAUGGUGGCCAUCGUCCGAUAUGCUUAUGACAAAAGAUCUAAUCCUCAAGUUGGUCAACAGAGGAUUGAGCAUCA,0.115
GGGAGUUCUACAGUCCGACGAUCCUGAGGAUACCACUGAAAGAGACAUUAAAGAAUCAUUUGAGGGCUCUCGUUCGGGCAGAAUAGUCACUGAUCGGGAAACUGGUUCUUCCAAAGGGUUUGGUUUUGUAGACUUUAAUAGUGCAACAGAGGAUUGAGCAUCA,0.891
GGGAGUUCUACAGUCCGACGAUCUUUCUACUGCAGCAAACGAUGCUAAGAAUUAAGGAUCCUAAGAAGUCACUGGAUUUUUAUACGAGGGUUCUUGGACUGACCCUCCUGCAGAAGCUUGACUUCCCUGCUAUGAAGUUUUCGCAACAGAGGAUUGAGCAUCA,0.255
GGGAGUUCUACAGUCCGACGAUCCCUGCUCAGAUCACCAUGAAAGUAAUCCAAGGCCUAUAUAGUGGGGUCACCACAGUGGAACUGGACACCCUGGCUGCUGAGACAGCCGCAACCUUGACUACUAAGCACCCUGACUAUGCCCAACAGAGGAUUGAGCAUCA,0.186
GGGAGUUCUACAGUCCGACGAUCCUGAAAAACACAGAUAUCAAAGUUGUUGACUUUGGAAGUGCAACGUAUGAUGAUGAACAUCACAGUACUUUGGUGUCUACCCGGCACUACAGGGCUCCCGAGGUCAUUUUGGCUCUAGGUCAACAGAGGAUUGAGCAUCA,0.271

# Study 3 — method: protein binding microarray; molecule type: double-stranded DNA, one strand shown; matrix: in vitro; tested at: not given; baseline: not given; reading: higher = stronger binding
# Target: Histone acetyltransferase KAT6A, winged helix 1, GST fusion (KAT6A, Homo sapiens, UniProt Q92794, residues 1-85)
# Notes: 8-mer, flanks averaged, mean of 2 arrays, mostly near background
# Residues (chain): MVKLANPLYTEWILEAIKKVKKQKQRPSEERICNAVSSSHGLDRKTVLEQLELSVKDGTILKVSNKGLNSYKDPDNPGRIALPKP
Oligonucleotide,E-score
ACGGCAAC,0.349
ACTATATC,-0.164
CTCGCCCA,-0.0883
ATCCCCAA,-0.29
CTCAAAGC,0.0888
GATTAGCC,0.048
CGAGGCAG,-0.0155
ATTGTCAG,-0.146
AGTAAGCC,0.12
ACAGGCAA,-0.176
ACAGGCAC,-0.0924
ACGTGTAA,-0.0677
AGCGAGTA,0.0601
CTACCGTC,0.217
AACAAATC,-0.141
ACCACATA,-0.229
CATACATC,-0.0795
TCCTGCAA,-0.282
GCGTCTGA,0.0771

# Mixed results
Molecule,target,test,test system,conditions,scale,measurement,value
"PhoQ, residues 284 288 289 292 302 303 SSTLSG","PhoP, residues 12 14 15 18 19 GQALL (Escherichia coli, UniProt P23836)","Sort-seq, measured: YFP reporter",E. coli,"PhoQ-PhoP variant library, together with: 10 µM Mg2+","baseline: high Mg2+ state, higher = stronger signaling",fold induction,11
